Measurements pooled from the literature.
Each numbered part is a random draw from the data of one study; scales do not carry over between parts.

Study 1 — method: universal PBM; form: double-stranded DNA, one strand shown; matrix: in vitro; tested at: not given; direction: higher = stronger binding; quantity: E-score
Target: Sal-like protein 4, full length isoform B (SALL4, Homo sapiens, UniProt Q9UJQ4-2, residues 1-616)
Setting: 8-mer, flanks averaged, mean of replicates
ACGATGCC: -0.261
AGCCCCCC: -0.399
AGTCGAGG: -0.244
CCGTCAGG: -0.235
AGTTCATC: 0.0685
TCCAGGCA: 0.0759
CTACTAGA: 0.0392
AACCCCTC: -0.263
CCCGTTTC: -0.147
ATACTGCG: 0.0236
CCAAACAA: 0.0263
AGGAGTCG: -0.195
CAAAGTAC: 0.0676
CGCTTCAG: -0.0523
CAGACAGG: -0.189
AGCCGATA: 0.00252
ATCGGACG: -0.11
CCTTCCCA: -0.115
ACTTGTCA: -0.0746
AGTGCTAC: 0.0168
AACGTACG: 0.141
GCGCAATA: 0.139
CTAATTGC: -0.0216
ATAACTAG: 0.31

Study 2 — method: RNA Bind-n-Seq; form: RNA; matrix: in vitro; tested at: 365 nM; relative to: no-protein control; direction: higher = stronger binding; quantity: RBNS enrichment (R)
Target: RNA binding protein fox-1 homolog 2, RRM domain, GST-SBP tag (RBFOX2, Homo sapiens, UniProt O43251-10, residues 100-194)
Setting: natural RNA segment, single round, ends assumed
Constant ends, left off below: GGGAGUUCUACAGUCCGACGAUC … UGGAAUUCUCGGGUGCCAA
Construct (chain): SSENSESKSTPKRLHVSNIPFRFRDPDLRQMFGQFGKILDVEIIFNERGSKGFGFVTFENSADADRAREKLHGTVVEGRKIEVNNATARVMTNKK
CAUUCCUCUUACUGGGGCCUGGGGCUCUAGCCCAAGGCUCAGAGGAGCCAAUAAACCUGUAAAUGAAUAGACGCAUGUUUGAGUGAGUAAAUGGGCCUUUAAAGGGGAGC: 2.69
GCCUUUCAUUUUUCACGCUCGUAUUUCCCCACCUGUCCAAGGGUGCAGAUAGCAGGAUUGUGGGGUCGGCCGCAUCUCUCUUGGCAGUGGGUUGUGCUGCCCCUCCCCCC: 0.504
AGGAUGUGAUAUAUAAGUGUACAUAUGUGCUGUACACCUGGGACCUUCACCACUGUAGAUCCCAUGCAUGGAUCUAUGUAGUAUGCUCUGACUCUAAUAGGACUGUAUAU: 4.36
AGGGUUGGGCCUGUUGGGGCCAGGUUUGUAAUGUCUCCAAGGGCAUCUGCAGAGAGCUUGGCAGCUCCAGCUCUCCUCAGCAGGCCUCUCCACCCUGAUCUGGCCCCUGU: 0.273
UCUGGAGAGCACCUCCAUUAUCUCCUCUUGAAAGUUCCUAGCCAGCAGCGCGUUCUGCGGGGCCCACUGAAGCAGAAGGCUUUUCCCUGGGGAACAGCUCUCGGUGUUGA: 0.268
UCGGUUCUCCUCUUCCUCCACGCCGCCCCCUGAGCCCCCCUACAUCGGUCCCCCUGCUGCUCUGUCCACUACAAGGUCAGCCACCUGCCAGGAGGCCACAGACAACAGGA: 0.41
AUUUAAAUGAGACAAUCAUAUUAUUUUAGAAUCAUUUAUUUUAAAUGAGACAAUCAUUUUAAGUUUUAAGAUAACAGAAGUGACCAAUGUAAUUUCACAACACCUAAGGA: 0.254
AAACAGCGAGAAUGAAGAGCUACAUUCUUGCAGACGAGCUGUAGGUCGUACACGAAUGUCUAAAGAGACAUUCAAAACUCGAAUAGGGUGCAGAGUAAUUUCUUACUGUG: 0.28

Study 3 — method: protein binding microarray; form: double-stranded DNA, one strand shown; matrix: in vitro; tested at: not given; relative to: not given; direction: higher = stronger binding; quantity: E-score
Target: Histone acetyltransferase KAT6A, both winged helices, GST fusion (KAT6A, Homo sapiens, UniProt Q92794, residues 1-181)
Setting: 8-mer, flanks averaged, mean of 2 arrays, mostly near background
Target sequence (chain): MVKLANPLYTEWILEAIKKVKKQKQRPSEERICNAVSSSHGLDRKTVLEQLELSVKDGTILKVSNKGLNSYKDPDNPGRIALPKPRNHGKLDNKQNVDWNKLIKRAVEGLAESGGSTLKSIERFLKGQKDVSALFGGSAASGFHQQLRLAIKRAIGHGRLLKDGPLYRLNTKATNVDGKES
TCACAGAA: -0.0784
ATGATGAG: -0.117
ACTGTTTA: -0.0201
AGTAATCC: -0.137
CTTTGGAC: 0.0206
AAGGAAAT: -0.196
CAGCGATA: -0.18
ACGAGCAC: -0.134
AGACTTCG: -0.208
CGCGATAC: 0.278
AGCTGACG: 0.144
CTAGTCCC: -0.136
CTCTTCAG: -0.0668
ACATCTTA: -0.216
GCTAGTCC: 0.0236
AGCTATGA: -0.141
AATGGCAA: -0.0459
GCATAACC: 0.0427
CTCTCACA: -0.0574
CACTACCG: 0.0697
CTTGGAAA: -0.0231
ACCAAGCA: -0.142

Study 4 — method: protein-binding microarray; form: double-stranded DNA, one strand shown; matrix: in vitro; tested at: 250 nM; setting: 60-bp whole probe; added: salmon DNA 0.4 mg/ml; relative to: random background probes; direction: higher = stronger binding; quantity: log fluorescence; constant ends, left off below: GCCTAGCAC … GTCTTGATTCGCTTGACGCTGCTG
Target: Interferon regulatory factor 5, full length, phosphomimetic (IRF5, Homo sapiens, UniProt Q13568-2, residues 1-514, K96S/S451D/S453D/S456D/S462D)
GACGGAATCGGTATCGGGACGTGCTAG: 1.47 z-score
TTATGTTTCCTTTCCCTTTAGTGCTAG: 2.21 z-score
TTCGGTTTCCTTTCCCTTTAGTGCTAG: 2.95 z-score
TCATTTTCATGCTCTTATACTGTGCTA: 2.13 z-score
TTAGGTTTCTTACTGCTTTAGTGCTAG: 0.936 z-score
GCCCCTTTCCTTTGCCTCTGGTGCTAG: 0.534 z-score
TCAAATTTCCCACTTTCACTGTGCTAG: 4.52 z-score
TTAGATTTCGGGTTGCGATTAGTGCTA: 5.33 z-score
TTAGGACTGGGTTTCGGCTAGTGCTAG: 3.7 z-score
TTAGGGCTCGGTTTCGGTTAGTGCTAG: 8.06 z-score
TTAGGTTTCTGGACTGGGTTAGTGCTA: 0.962 z-score
GACGGATCCCTTTTCCTGACGTGCTAG: 0.000465 z-score
TTAGGACTGCTTCTCCTTGAGTGCTAG: -0.332 z-score
GACGGTCTCGGTATTGGGACGTGCTAG: 0.146 z-score
CATCTTCTGGATTTTTTAGCGTGCTAG: 0.455 z-score
TCAGTTCCTTATTTAAGACTGTGCTAG: 0.238 z-score
TCATTTTTTTCTAACTAACTGTGCTAG: 1.25 z-score
GTAGTAATGAATATAATACCGTGCTAG: 0.418 z-score
GACGGTATCGATTATCGGGACGTGCTA: 6.21 z-score
